Measured values gathered from unrelated publications.
Each numbered part is a random draw from the data of one study; scales do not carry over between parts. Positions count from the first letter of the parent shown.

Study 1 — target: BATF, bZIP domain (human); method: DHFR protein complementation; sample: yeast; reference: wild-type JUN-FOS pair; reading: higher = stronger binding
Notes: single substitutions, most at no-binding floor
Starting sequence: JUN, bZIP domain (human); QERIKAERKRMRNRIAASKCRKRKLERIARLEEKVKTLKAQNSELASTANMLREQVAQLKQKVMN; partner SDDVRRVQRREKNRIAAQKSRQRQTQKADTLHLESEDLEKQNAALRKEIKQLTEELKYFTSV
`E54C` gave a binding fitness of -0.173 natural log.
The binding fitness of `K36E` is reported as -0.057 natural log.
The binding fitness of `Q55G` is reported as -0.477 natural log.
`R53K` has a binding fitness of -0.0807 natural log.
For `E32I`, the binding fitness was -0.237 natural log.
With `I28R` the binding fitness was 0.017 natural log.
With `E32H` the binding fitness was -0.133 natural log.
The binding fitness of `Q41W` is reported as -1.24 natural log.
`A49L` has a binding fitness of -0.134 natural log.
`R30H` gave a binding fitness of 0.038 natural log.
`R30V` has a binding fitness of 0.209 natural log.
For `E32Q`, the binding fitness was -0.0916 natural log.
For `V56M`, the binding fitness was -0.298 natural log.

Study 2 — organism: Saccharomyces cerevisiae; read-out: binding; method: yeast competitive growth sequencing; molecule type: peptide; strain: cyclin A1-Cln2 strain; sample: peptide tiling library; notes: pooled screen; reading: direction not given
`IPMIAKNLMCELDE` gave an enrichment score of -0.657.
For `RRRIKLPESDSSED`, the enrichment score was 1.69.
For `NARRSLNFGGSTGT`, the enrichment score was -0.502.
`ALTMEALEDPSPELME` has an enrichment score of 1.53.
The enrichment score of `NRLLKLFTRCLTPLVP` is reported as -2.5.
`EAAPPTQEAQGETEPT` gave an enrichment score of 0.434.
The enrichment score of `AIRKMREDRWAVIAKM` is reported as -2.6.
For `VRDLSYRLVFLACCVA`, the enrichment score was -0.872.
`RNRGPKLNAMLRLGVL` gave an enrichment score of -1.98.
`VKTKKRLNFDDK` has an enrichment score of -0.695.
With `RRRRLLFWDKETQI` the enrichment score was -1.3.
With `HRRRLLFACSPPPASQ` the enrichment score was -1.89.

Study 3 — method: protein binding microarray; molecule type: double-stranded DNA, one strand shown; sample: in vitro; concentration: not given; reference: not given; reading: higher = stronger binding
Target: Histone acetyltransferase KAT6A, winged helix 1, GST fusion (KAT6A, Homo sapiens, UniProt Q92794, residues 1-85)
Notes: 8-mer, flanks averaged, mean of 2 arrays, mostly near background
Target sequence (chain): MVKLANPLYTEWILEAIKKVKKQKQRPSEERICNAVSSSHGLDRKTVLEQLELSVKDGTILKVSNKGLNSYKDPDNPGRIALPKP
For `GGTTGCAA`, the E-score was -0.155.
`AAACGTCA` has an E-score of 0.00129.
The E-score of `GATGCAAC` is reported as -0.167.
For `CGCTATCC`, the E-score was 0.208.
`AGCCACGC` has an E-score of 0.0828.
The E-score of `CGCAAAGC` is reported as 0.294.
For `CATTTGGA`, the E-score was -0.197.
The E-score of `GCGGCCCA` is reported as 0.318.
`TACATGGA` gave an E-score of 0.00869.
With `ACGAAAGA` the E-score was -0.029.
The E-score of `AGACGTTC` is reported as -0.0836.
With `ATAGTTCC` the E-score was -0.0428.
The E-score of `CCACGCAA` is reported as 0.0304.
For `CCCCACGA`, the E-score was -0.204.
`ACGGGCTC` has an E-score of 0.298.
`AAAGGGTG` has an E-score of -0.126.
`ACGCTCGA` has an E-score of 0.0876.
For `CCCAAAAC`, the E-score was -0.264.
The E-score of `GGAGGCCA` is reported as -0.143.
For `ACGTCCTA`, the E-score was -0.107.

Study 4 — method: RNA Bind-n-Seq; molecule type: RNA; sample: in vitro; concentration: 365 nM; reference: no-protein control; reading: higher = stronger binding
Target: RNA binding protein fox-1 homolog 2, RRM domain, GST-SBP tag (RBFOX2, Homo sapiens, UniProt O43251-10, residues 100-194)
Notes: natural RNA segment, single round, ends assumed
Construct (chain): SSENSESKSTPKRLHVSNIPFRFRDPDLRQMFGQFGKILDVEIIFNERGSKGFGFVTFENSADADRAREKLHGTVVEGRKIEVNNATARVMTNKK
Under “RBNS enrichment (R)”, `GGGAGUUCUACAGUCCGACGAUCCAUGUCUAGCCCAUCAUCCUGCUUGGAGCAAGUAGGCAGGAGCUCAAUAAAUGUUUGUUGCAUGAAGAAUGUCUGGAGAGCUGGAUGGGGCAUCAUGAAGAGGGUAGGGGUGGAAUUCUCGGGUGCCAA` is recorded as 28.2.
`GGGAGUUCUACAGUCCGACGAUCCUUCCCUGGUCCCCUCCUUUCUGGCCAUUGUCAUCCAUUUCCCAGUUAGGGCAACAAUGAAGGAGGACCCAGCCAAGCUAGAAGGAAUUUUGUGGAUGGGAGACAGCAGGUGGAAUUCUCGGGUGCCAA` — result for “RBNS enrichment (R)”: 0.365.
`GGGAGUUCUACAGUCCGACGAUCUAGAGAGAUUUACCAUAUAACUUAUGGACUUUGAAAUGUCUGUCCUUUUAAGGCAGCAGGGAGGCCUGGGUGCGAAGCAUGUUGGCUUGGCCCUUCACGGUCCUGGAGGGUGGAAUUCUCGGGUGCCAA` — result for “RBNS enrichment (R)”: 10.
Under “RBNS enrichment (R)”, `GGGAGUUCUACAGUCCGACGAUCCAGAUCUGACCUGCCUGAGACAACCCAGGUAAUUUGGGGUUUGAUCAGAGGUCUAAUGGUAGCAAACGACACAGCGACCUUCUUCAUUACUUUGGCCAAGGUUGAAGAUGUGGAAUUCUCGGGUGCCAA` is recorded as 0.231.
`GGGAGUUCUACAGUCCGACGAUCUAUUUAGCACUUGAAAAUCAACAAAUCCAGAAUUUAAAAAAAUGCCACAGACUUUUCAAAGCCCAACUCUACUUUUUUGAGAAUUUGUCCGUACCUACUAAUAUGCCUUAUGGAAUUCUCGGGUGCCAA` — result for “RBNS enrichment (R)”: 0.787.
For `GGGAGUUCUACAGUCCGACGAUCUCUGAGAUCCCCAAGGCCUUUCCUACAUGCCCCCUCCCUUCACAGGGGUACAGAAAUUAUCCCCCUACAACCCCAGCCUCCUGAGGGCUCCAUGCUGAAGGCUCCCAUUUUGGAAUUCUCGGGUGCCAA`, “RBNS enrichment (R)” read 0.636.
`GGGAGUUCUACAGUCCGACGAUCACUUCCUGUCCCACCGGCAUCUCACUUAAUUGAGCCUAAUGUCAGUAUCUGUGUGUGCCAAUGCUGUUACCACAUCCUGGUGAAGCUAAAAAAUAAAAUUUAAUUUGGACUGGAAUUCUCGGGUGCCAA` — result for “RBNS enrichment (R)”: 0.348.
`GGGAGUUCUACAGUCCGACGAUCUUCAGUUUGUAGGAGGCAGCCUGUGUGAGUGACAGACAGGAAACAGAAGAGUAGAACAUACUGGCAGAGUUUUACAUUAGGAUAUUGCUGUCUUUUCUACGAUAGAGAAUUGGAAUUCUCGGGUGCCAA` — result for “RBNS enrichment (R)”: 1.05.
Under “RBNS enrichment (R)”, `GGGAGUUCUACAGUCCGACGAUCCAGGGCGGGCUGAGGGCAGAAGGCAGUGAGACAUUUAUCCACAGAACAGUCUCCCUCGUCCCACCCACUGCCUCGUUAACUAGAUCCCACAUCAGUGUGCUGAGUACCUGUGGAAUUCUCGGGUGCCAA` is recorded as 0.239.
`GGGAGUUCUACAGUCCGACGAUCGCCCUGUCCCUGCUCAGAGAACAGAUCCGGAGCAGGUGGUCUGGUCAGUCAGGAUGGAACAGUGCUACAAGCACCAGCCUGCCUCUGAGCAGUGCUCGGAACAGCUGAGGUGGAAUUCUCGGGUGCCAA` — result for “RBNS enrichment (R)”: 0.28.
Under “RBNS enrichment (R)”, `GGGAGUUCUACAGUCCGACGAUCACAGAGUGACAAGAAACUGGCUAGUUUGCUAUAAAUCCUACAUUCUGUUUGAUACCUUGAGAGCAGAUACCUGGUCAGCGAGCUUUUAGGGGGGGGCGUUCAAAGGAAGCUGGAAUUCUCGGGUGCCAA` is recorded as 0.514.
For `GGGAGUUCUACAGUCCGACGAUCCUUUCUAGUGCCCAUCUUGGCUCUCCAGCUGCAAGUUGCACAGCCAUAACCUAAGACUUUAAAAUAAGGCCACACCCAGAUUUGGGAAGGUAGAGGGGGAAAAAAAGUAGUGGAAUUCUCGGGUGCCAA`, “RBNS enrichment (R)” read 0.276.

Study 5 — method: universal PBM; molecule type: double-stranded DNA, one strand shown; sample: in vitro; concentration: 600 nM; reading: higher = stronger binding
Target: Sal-like protein 4, full length isoform A (SALL4, Homo sapiens, UniProt Q9UJQ4, residues 1-1053)
UniProt Q9UJQ4, sequence (whole entry, looked up): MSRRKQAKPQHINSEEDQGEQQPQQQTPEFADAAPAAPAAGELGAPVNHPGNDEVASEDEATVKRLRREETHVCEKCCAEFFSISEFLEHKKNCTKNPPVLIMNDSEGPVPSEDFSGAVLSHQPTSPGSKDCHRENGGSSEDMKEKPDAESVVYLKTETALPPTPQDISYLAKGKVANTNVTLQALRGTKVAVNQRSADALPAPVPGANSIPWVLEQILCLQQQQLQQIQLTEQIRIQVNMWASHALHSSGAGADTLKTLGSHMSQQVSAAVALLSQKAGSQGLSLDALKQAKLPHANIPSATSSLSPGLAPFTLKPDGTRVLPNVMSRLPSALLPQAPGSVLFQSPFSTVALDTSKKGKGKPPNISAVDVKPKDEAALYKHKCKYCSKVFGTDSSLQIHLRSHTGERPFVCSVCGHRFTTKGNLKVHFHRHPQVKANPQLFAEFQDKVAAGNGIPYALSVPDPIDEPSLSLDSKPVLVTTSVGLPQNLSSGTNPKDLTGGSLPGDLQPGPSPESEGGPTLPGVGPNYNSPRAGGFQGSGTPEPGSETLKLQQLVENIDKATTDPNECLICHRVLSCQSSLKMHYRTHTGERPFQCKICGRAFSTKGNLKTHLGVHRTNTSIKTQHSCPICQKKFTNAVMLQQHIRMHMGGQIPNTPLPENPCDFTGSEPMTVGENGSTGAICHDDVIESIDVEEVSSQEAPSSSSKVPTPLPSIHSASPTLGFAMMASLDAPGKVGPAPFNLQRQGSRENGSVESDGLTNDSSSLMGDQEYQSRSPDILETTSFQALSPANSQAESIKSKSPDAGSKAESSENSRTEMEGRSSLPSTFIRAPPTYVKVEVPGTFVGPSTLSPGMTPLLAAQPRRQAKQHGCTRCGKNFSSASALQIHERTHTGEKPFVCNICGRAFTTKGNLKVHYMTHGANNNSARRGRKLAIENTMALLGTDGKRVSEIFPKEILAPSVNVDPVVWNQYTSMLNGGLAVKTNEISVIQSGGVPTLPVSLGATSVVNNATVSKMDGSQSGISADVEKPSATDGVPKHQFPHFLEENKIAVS
Notes: 8-mer, flanks averaged, mean of replicates
The E-score of `AAACGGGT` is reported as -0.0495.
The E-score of `CTAGATCA` is reported as -0.0139.
`GACTGCTC` gave an E-score of -0.353.
With `GGCGCGTA` the E-score was -0.164.
With `AGCACGAT` the E-score was -0.00017.
The E-score of `CTACGGTC` is reported as -0.308.
`CTTCAGCA` has an E-score of -0.106.
With `GAAAGCAA` the E-score was 0.105.
For `CAACTGGG`, the E-score was -0.28.
For `TCCTTAGA`, the E-score was -0.0609.
`ATGCAATC` gave an E-score of 0.108.
`GATAGTGC` has an E-score of -0.133.
`AGACAGTC` has an E-score of -0.182.
With `AATTTTCG` the E-score was 0.333.
For `TGACTACA`, the E-score was 0.227.
`GACCTCGC` gave an E-score of -0.305.
For `ATCACCTG`, the E-score was -0.0327.
`CATCCACA` has an E-score of 0.0102.

For quick reference, copied from above (study 5):
With `GAAAGCAA` the E-score was 0.105.
For `CAACTGGG`, the E-score was -0.28.
For `TCCTTAGA`, the E-score was -0.0609.
`ATGCAATC` gave an E-score of 0.108.
`GATAGTGC` has an E-score of -0.133.
`AGACAGTC` has an E-score of -0.182.
With `AATTTTCG` the E-score was 0.333.
For `TGACTACA`, the E-score was 0.227.
